Published values gathered from unrelated publications.
Protocols differ between the studies behind these lines. “And” joins repeats or separate records; there may be more than shown.

C=C1C[C@@]23CC[C@H]4[C@@](C)(CCC[C@@]4(C)C(=O)O[C@@H]4O[C@H](CO)[C@@H](O)[C@H](O)[C@H]4O)[C@@H]2CC[C@]1(O[C@@H]1O[C@H](CO[C@H]2O[C@H](CO)[C@@H](O)[C@H](O)[C@H]2O)[C@@H](O)[C@H](O)[C@H]1O[C@@H]1O[C@H](CO)[C@@H](O)[C@H](O)[C@H]1O)C3  solubility (water; 24 h): 406 mg/mL
O=C(NCCNCCO)c1cn(Cc2ccc(F)cc2)c2cc(Cl)c(OCc3ccc(C(F)(F)F)cc3)cc2c1=O  solubility (shake flask; PBS; 24 h, pH 6.5, 25 °C): < 5 µM
OC(CN1CCC2(CC1)CC(O)c1ccc3ccccc3c1O2)c1ccc(F)c(F)c1 (stereo not drawn)  solubility (absorbance; aqueous buffer; pH 6.2): > 0.042 mg/mL
C[Si]1(C)CNC(=O)c2ccccc21  solubility (aqueous buffer; pH 7.4): 397 µM
O=C1CCCCC(=O)Nc2ccc3oc(cc3c2)C(=O)NCc2cccc(c2)CNC(=O)c2cc3cc(ccc3o2)N1  solubility (aqueous buffer; pH 7.4): < 2 µM
CCC(C)n1c(C(=O)Nc2cnc(C(=O)NC)n(CC(C)C)c2=O)ncc(NC(=O)c2ncc(NC(=O)c3ccccc3)c(=O)n2Cc2ccc(OC)cc2)c1=O (stereo not drawn)  solubility (PBS; 24 h, pH 7.4, 25 °C): 8 µM
CC(C)CCCC(C)CCCC(C)CCOC1OC[C@H](O)[C@H](O)[C@H]1O (stereo partly drawn)  solubility (water): 27.3 µM
CC12N3Cc4c(c(OCCCS(=O)(=O)[O-])c5ccccc5c4OCCCS(=O)(=O)[O-])CN1C(=O)N1Cc4c(c(OCCCS(=O)(=O)[O-])c5ccccc5c4OCCCS(=O)(=O)[O-])CN(C3=O)C12C.[Na+].[Na+].[Na+].[Na+] (stereo not drawn)  solubility (NMR; aqueous buffer): 38000 µM
C[N+](C)(C)C[C@@H](O)CC(=O)O.O=C([O-])[C@@H](O)Cc1ccccc1  solubility (water): 1530 mg/mL
CC1(C)C(/C=C/C2=C(Cl)C(=C/C=C3/N(CCCCCC(=O)O)c4ccccc4C3(C)C)/C[N+](C)(C)C2)=[N+](CCCCCC(=O)O)c2ccccc21  solubility (absorbance; water): ≥ 1000 µM
CC(C)=CCC[C@](C)(O)[C@H]1CC[C@]2(C)[C@@H]1[C@H](O)C[C@@H]1[C@@]3(C)CC[C@H](O)C(C)(C)[C@@H]3CC[C@]12C  solubility (water; 72 h, 25 °C): 3.68e-05 mg/mL
Cc1c(-c2ccc(Cc3ccc(OC(F)(F)F)cc3)cc2)[nH]c2cccc(F)c2c1=O  solubility (simulated gastric fluid; 24 h, pH 2, acidic): 0.68 µM
COc1ccc2ccc(C(=O)Nc3ccc(CN)cc3)c(O)c2c1  solubility (PBS; pH 7.4): 746 µM
CC(=O)N[C@@H](CCC(N)=O)C(=O)N[C@@H](CCC(N)=O)C(=O)N[C@@H](CCCCN)C(=O)N[C@@H](Cc1ccccc1)C(=O)N[C@@H](CCC(N)=O)C(=O)N[C@@H](Cc1ccccc1)C(=O)N[C@@H](CCC(N)=O)C(=O)N[C@@H](Cc1ccccc1)C(=O)N[C@@H](CCC(=O)O)C(=O)N[C@@H](CCC(N)=O)C(=O)N[C@@H](CCC(N)=O)C(N)=O  solubility (water): ≥ 60000 µM
CCS(=O)(=O)c1ccccc1C(=O)N1CCN(c2nc3ccc(F)cc3s2)C[C@@H]1C  solubility (PBS; pH 7.4): 139 µM
CC(=O)OC1C(=O)C2(C)C(O)CC3OCC3(OC(C)=O)C2C(OC(=O)c2ccccc2)C2(O)CC(OC(=O)C(OC(=O)OC3C=CCCC(C)(C(=O)NCC(=O)O)CC3)C(NC(=O)c3ccccc3)c3ccccc3)C(C)=C1C2(C)C (stereo not drawn)  solubility (PBS): 1 mg/mL
CC(=O)N[C@@H](CCC(N)=O)C(=O)N[C@@H](CCC(N)=O)C(=O)N[C@@H](CCCCN)C(=O)N[C@@H](Cc1ccccc1)C(=O)N[C@@H](CCC(N)=O)C(=O)N[C@@H](CC(C)C)C(=O)N[C@@H](CCC(N)=O)C(=O)N[C@@H](Cc1ccccc1)C(=O)N[C@@H](CCC(=O)O)C(=O)N[C@@H](CCC(N)=O)C(=O)N[C@@H](CCC(N)=O)C(N)=O  solubility (water): ≥ 60000 µM
CCn1cc(-c2ccnc(Nc3ccc(N4CCNCC4)cc3)n2)c(-c2cccnc2)n1  solubility (aqueous buffer; pH 7.4): 0.0938 mg/mL
COc1ccc(-c2ccc3oc(-c4ccc(OC)cc4)c(C#CC4(O)CCCCC4)c3c2)cc1  solubility (aqueous buffer): < 0.001 mg/mL
O=C([O-])CN1CCNCCNCCN(C(C(=O)[O-])c2ccc(C(=O)O)cc2)CC1.[Mn+2] (stereo not drawn)  solubility (water): 540 mg/mL
CC1=N[C@H](C)Cc2c(-c3ccc(C)cc3)ccc(O)c21  solubility (shake flask; PBS; 24 h, pH 6.5, 25 °C): 180 µM
O=C(Nc1ccc(OC(F)(F)F)cc1)N1CCC(Cc2cccc(Oc3ccc(C(F)(F)F)cn3)c2)CC1  solubility (water; 48 h, 37 °C): 0.00013 µM
CC(=O)N[C@@H](CCC(N)=O)C(=O)N[C@@H](CCC(N)=O)C(=O)N[C@@H](CCCCN)C(=O)N[C@@H](Cc1ccccc1)C(=O)N[C@@H](CCC(N)=O)C(=O)OCC(=O)N[C@@H](CCC(N)=O)C(=O)N[C@@H](Cc1ccccc1)C(=O)N[C@@H](CCC(=O)O)C(=O)N[C@@H](CCC(N)=O)C(=O)N[C@@H](CCC(N)=O)C(N)=O  solubility (water): ≥ 10000 µM
C[N+](C)(C)CCO.O=C(O)[C@H](O)Cc1ccccc1.O=C([O-])[C@H](O)Cc1ccccc1  solubility (water): 1480 mg/mL
O=c1c2cc(-c3ccc(Cl)cc3)nc(-c3cccnc3)c2ncn1C1CCC(O)CC1 (stereo not drawn)  solubility (aqueous buffer): < 0.1 mg/mL
CCCn1c(=O)c2[nH]c(-c3ccc(N(C)C(=O)c4ccc(C(F)(F)F)nc4)nc3)nc2n(CCC)c1=O  solubility (water): 0.003 mg/mL
COc1ccccc1CNC(=O)CCn1c(=O)[nH]c2ccsc2c1=O  solubility (aqueous buffer; pH 6.5): 80 µM
N#C/C(=C\c1ccc(N(c2ccccc2)c2ccccc2)cc1)C(=O)O  solubility (NMR; aqueous buffer): < 500 µM
O=C(/C=C(O)/C=C/c1cccs1)/C=C/c1cccs1  solubility (shake flask; aqueous buffer; 24 h, pH 6.8, 37 °C): 12.8 µM
O=C1c2ccccc2C2(c3ccc(O)cc3Oc3cc(O)ccc32)N1CCS(=O)(=O)O  solubility (HPLC; water; 24 h, 25 °C): 10.9 mg/mL
COc1cc(C2c3cc4c(cc3C(OC3OC5COC(C)OC5C(O)C3O)C3COC(=O)C23)OCO4)cc(OC)c1OC(=O)OC1C=CCCC(C)(C(=O)NC(CC(=O)O)C(=O)O)CC1 (stereo not drawn)  solubility (PBS): 5 mg/mL
CCc1cnc(NC(=O)c2cc(S(=O)(=O)N3CCOCC3)ccc2N(C)CC2CC2)s1  solubility (aqueous buffer; pH 7.4): 14.2 µM
COc1cc(O)c(-c2cc(-c3cc(-c4c(O)cc(OC)c5c4C[C@@H](C)N[C@@H]5C)c4cc(C)cc(OC)c4c3O)c(O)c3c(OC)cc(C)cc23)c2c1[C@@H](C)N[C@H](C)C2  solubility (shake flask; PBS; 24 h, pH 6.5, 25 °C): 200 µM
CNC(=S)Nc1cccc([N+](=O)[O-])c1  solubility (water): 380 µM
COC(=O)C(Cc1c[nH]cn1)NC(=O)C1(C)C(O)CCC2(C)C1CCC1(C)C2CC=C2C3C(C)C(C)CCC3(C)CCC21C (stereo not drawn)  solubility (water; 25 °C): 29.4 mg/mL
CC(C)CCCC(C)CCCC(C)CCOC1O[C@H](CO)[C@@H](O)[C@H](O)[C@H]1O (stereo partly drawn)  solubility (water): 33.6 µM
CC(=O)c1c(O)c(C)c(O)c2c1OC1=CC(=O)/C3=C(/C)N[C@H](C(=O)O)CC1=CC=CC=C[C@@]2(C)C3=O  solubility (HPLC; water; 24 h, 25 °C): 4700 µM
O=C(NCCN1CCOCC1)c1cc2c3ccccc3n3c(=O)ccc(n1)c23  solubility (absorbance; water; 2 h): 0.0929 mg/mL
CC(=O)c1c(O)c(C)c(O)c2c1OC1=CC(=O)/C3=C(/C)N[C@H](C(=O)O)CC1=CC=C(O)C=C[C@]2(C)C3=O  solubility (HPLC; water; 24 h, 25 °C): 3810 µM
C=C(C)C(=O)Nc1ccc(-c2c(-c3ccc(Oc4nccc(C)n4)cc3)c3c(N)ncnc3n2C)cc1  solubility (FaSSIF): 12 µM
C[n+]1cc(NC(=O)c2ccc3ccc4ccc(C(=O)Nc5cc6ccccc6[n+](C)c5)nc4c3n2)cc2ccccc21  solubility (aqueous buffer; pH 7.4): 107 µM
Cc1c(-c2ccc(N3CCc4cccc(C(=O)Nc5nc6ccccc6s5)c4C3)nc2C(=O)O)cnn1CC12CC3(C)CC(C)(C1)CC(OCCN(CC(O)CO)C(=O)OCc1ccc(NC(=O)[C@@H](CCCNC(N)=O)NC(=O)[C@H](NC(=O)CCCCCN4C(=O)C=CC4=O)C(C)C)cc1)(C3)C2 (stereo partly drawn)  solubility (aqueous buffer; pH 7.4): < 0.0011 mg/mL
C[n+]1cc(C(=O)NCCc2c[nH]c3ccc(NC(=O)c4cc5ccccc5[n+](C)c4)cc23)cc2ccccc21  solubility (aqueous buffer; pH 7.4): 340 µM
CC12N3Cc4c(OCCCS(=O)(=O)[O-])ccc(OCCCS(=O)(=O)[O-])c4CN1C(=O)N1CN4C(=O)N5CN6C(=O)N7Cc8c(OCCCS(=O)(=O)[O-])ccc(OCCCS(=O)(=O)[O-])c8CN8C(=O)N(CN9C(=O)N(CN(C3=O)C12C)C4C95)C6(C)C87C.[Na+].[Na+].[Na+].[Na+] (stereo not drawn)  solubility (NMR; aqueous buffer): 102000 µM
COc1cc(-c2ccc3oc(-c4ccsc4)c(C#CC4(O)CCCCC4)c3c2)cc(OC)c1OC  solubility (aqueous buffer): < 0.001 mg/mL
CCCCCCCCCCCCCCCCCC(=O)Nc1ccn(C2OC(CO)C(O)C2(F)F)c(=O)n1 (stereo not drawn)  solubility (aqueous buffer): < 0.01 µM
CC12N3Cc4c(c(OCCCS(=O)(=O)[O-])c5ccccc5c4OCCCS(=O)(=O)[O-])CN1C(=O)N1CN4C(=O)N5Cc6c(c(OCCCS(=O)(=O)[O-])c7ccccc7c6OCCCS(=O)(=O)[O-])CN6C(=O)N(CN(C3=O)C12C)C4(C)C65C.[Na+].[Na+].[Na+].[Na+] (stereo not drawn)  solubility (NMR; aqueous buffer): 343000 µM and > 300000 µM
CC(C)=CCCC(C)(O)C1CCC2(C)C1C(O)CC1C3(C)CCC(OC4OC(COC(=O)CCCCCN5C(=O)C=CC5=O)C(O)C(OC(=O)CCCCCN5C(=O)C=CC5=O)C4O)C(C)(C)C3CCC12C (stereo not drawn)  solubility (water; 24 h, 37 °C): 0.292 mg/mL
C[C@H](CCC(=O)NCCC(c1ccccc1)c1ccccc1)[C@H]1CC[C@H]2[C@@H]3CC[C@@H]4CC(=O)CC[C@]4(C)[C@H]3CC[C@]12C  solubility (simulated gastric fluid; 48 h, pH 1, 25 °C, acidic): 12 µM
CC(=O)O[C@H]1C(=O)[C@]2(C)[C@@H](OC(=O)[C@H](N)CSC3CC(=O)N(CCC(=O)Nc4ccc(-c5ccc(/N=N/c6ccc7c(S(=O)(=O)O)cc(S(=O)(=O)O)c(N)c7c6O)c(C)c5)cc4C)C3=O)C[C@H]3OC[C@@]3(OC(C)=O)[C@H]2[C@H](OC(=O)c2ccccc2)[C@]2(O)C[C@H](OC(=O)[C@H](O)[C@@H](NC(=O)c3ccccc3)c3ccccc3)C(C)=C1C2(C)C (stereo partly drawn)  solubility (water): 5.03 mg/mL
CCn1cc(C(=O)NCCNCCO)c(=O)c2cc(OCc3ccc(C(F)(F)F)cc3)c(C(F)(F)F)cc21  solubility (shake flask; PBS; 24 h, pH 6.5, 25 °C): 10 µM
COc1ccc2c(O)c(C(=O)Nc3ccc(CN)cc3)ccc2c1  solubility (PBS; pH 7.4): 254 µM
CCn1cc(C(=O)NCCNCCO)c(=O)c2cc(OCc3ccc(C(C)(C)C)cc3)c(Cl)cc21  solubility (shake flask; PBS; 24 h, pH 6.5, 25 °C): 25 µM
C[n+]1cc2cc3cc(ccc31)NC(=O)CCCCC(=O)Nc1ccc3c(c1)cc(c[n+]3C)C(=O)NCc1cccc(c1)CNC2=O  solubility (aqueous buffer; pH 7.4): < 2 µM

A few entries again:
O=C1CCCCC(=O)Nc2ccc3oc(cc3c2)C(=O)NCc2cccc(c2)CNC(=O)c2cc3cc(ccc3o2)N1  solubility (aqueous buffer; pH 7.4): < 2 µM
CCC(C)n1c(C(=O)Nc2cnc(C(=O)NC)n(CC(C)C)c2=O)ncc(NC(=O)c2ncc(NC(=O)c3ccccc3)c(=O)n2Cc2ccc(OC)cc2)c1=O (stereo not drawn)  solubility (PBS; 24 h, pH 7.4, 25 °C): 8 µM
CC(C)CCCC(C)CCCC(C)CCOC1OC[C@H](O)[C@H](O)[C@H]1O (stereo partly drawn)  solubility (water): 27.3 µM
CC12N3Cc4c(c(OCCCS(=O)(=O)[O-])c5ccccc5c4OCCCS(=O)(=O)[O-])CN1C(=O)N1Cc4c(c(OCCCS(=O)(=O)[O-])c5ccccc5c4OCCCS(=O)(=O)[O-])CN(C3=O)C12C.[Na+].[Na+].[Na+].[Na+] (stereo not drawn)  solubility (NMR; aqueous buffer): 38000 µM
